Experimental data collected from several papers.
Each numbered part is a random draw from the data of one study; scales do not carry over between parts.

Series 1
Target: RNA binding protein fox-1 homolog 2, RRM domain, GST-SBP tag (RBFOX2, Homo sapiens, UniProt O43251-10, residues 100-194)
Method: RNA Bind-n-Seq
Molecule type: RNA
Sample: in vitro
Tested at: 365 nM
Setting: natural RNA segment, single round, ends assumed
Baseline: no-protein control
Direction: higher = stronger binding
Under “RBNS enrichment (R)”, `GGGAGUUCUACAGUCCGACGAUCCGUGCACUUCCACUGCUCGGGCGCGCCUGUGGCCCCGCUGCAGUGAAGAGCUGCGCCCUGGUUUCGCCGGACAGAGUUGGUGUUUGGAGCCCGACUGCCCUCGGGCACACUGGAAUUCUCGGGUGCCAA` is recorded as 0.722.
`GGGAGUUCUACAGUCCGACGAUCCCUUUUUCACCUUUUAAUUUUAUAUUAUUUGUGUCAUACAUUUCCAGUAAUGGAAGUGUUAAUUUUACUGUACUUUUUGGUACCUUUUGGGAAUCUAAUGUAUUGUAAGGUGGAAUUCUCGGGUGCCAA` — result for “RBNS enrichment (R)”: 1.87.
`GGGAGUUCUACAGUCCGACGAUCACUGUAGAUUUUUACUGAUUGUCCUGGAUGAAUAGACUGUGCUUUUUCUUUUUCUCUCCCUUCCUUCUUGGUUUCCCAUAGUAUAAUAAGCAUGCAUACUUUAACUUCUAUGGAAUUCUCGGGUGCCAA`: “RBNS enrichment (R)” 9.92.
`GGGAGUUCUACAGUCCGACGAUCUGAAUUUUUAAUGCAGCAAUGUUGACUUUGUUUCAUACUGCCAAUAAACUCUUAAUACUAAAUACUGGUAAAGCAUAUUCUUUUUUUUUUUUCUAUUUGGAAAGACGCCAUGGAAUUCUCGGGUGCCAA`: “RBNS enrichment (R)” 0.8.

Series 2
Target: Fragile X messenger ribonucleoprotein 1, C-terminal low-complexity region (Fmr1, Mus musculus, UniProt P35922)
Method: RNA Bind-n-Seq
Molecule type: RNA
Sample: in vitro
Tested at: 200 nM
Setting: whole 134-nt RNA, ends assumed
With: 150 mM KCl
Baseline: input library
Direction: higher = stronger binding
For `GGGAGUUCUACAGUCCGACGAUCUGGGAGGUGGAUUUUAUUUAUUUUUUUAGCUCAUUUCCAGGGGUGGGAAUUUUUUUUUAAUAUGUGUCAUGAAUAAAGUUGUUUUUGAAAUGGAAUUCUCGGGUGUCAAGG`, the log2 enrichment was 0.206.
`GGGAGUUCUACAGUCCGACGAUCUGGCCCUGGUGGCAUGCGGGGAGGAAGAGGUGGCCUCCUGGAUCGUGGUGGUCCCGGUGGAAUGUUCAGAGGUGGCCGUGGUGGAGACAGUGGAAUUCUCGGGUGUCAAGG` has a log2 enrichment of 0.00923.
`GGGAGUUCUACAGUCCGACGAUCAGUCCUGUGCUACACAUCGUAUGUACCGAAUCGGUUUUUGGGGUUUUUGGUUUUUGGAAAGUAUUAUGUUACGCCGUUCGGAUCUGCACUUGGAAUUCUCGGGUGUCAAGG` gave a log2 enrichment of -0.37.

Series 3
Target: RING finger protein unkempt homolog, zinc fingers 1-6, GST-SBP tag (UNK, Homo sapiens, UniProt Q9C0B0, residues 30-357)
UniProt Q9C0B0, sequence (30-357, looked up): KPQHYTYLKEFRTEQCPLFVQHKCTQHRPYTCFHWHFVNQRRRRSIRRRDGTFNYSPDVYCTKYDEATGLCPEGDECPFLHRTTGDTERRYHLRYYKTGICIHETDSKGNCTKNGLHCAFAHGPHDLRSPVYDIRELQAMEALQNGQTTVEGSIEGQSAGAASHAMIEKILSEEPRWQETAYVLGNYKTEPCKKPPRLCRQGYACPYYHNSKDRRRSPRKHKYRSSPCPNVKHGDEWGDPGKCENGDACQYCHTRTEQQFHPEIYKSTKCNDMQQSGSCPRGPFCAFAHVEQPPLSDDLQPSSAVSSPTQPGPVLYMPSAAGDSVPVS
Method: RNA Bind-n-Seq
Molecule type: RNA
Sample: in vitro
Tested at: not given
Setting: RNA with constant flanks, human-mouse chimeric sites, ends assumed
Baseline: input RNA pool
Direction: higher = stronger binding
With `GGGAGUUCUACAGUCCGACGAUCUUGAAAACAAACUGAUUUAAGUUUGAGUAUCACAAUGUUAGCUUUCUAAUUCCACACAAGUACUUGGUUUUUACAGUUUAUAAUCUGACAUCACCCCAGCGCCAUUUGUAAAGAGCAACUCAACAGAGGAUUGAGCAUCA` the bound/input enrichment was 0.47 ratio.
For `GGGAGUUCUACAGUCCGACGAUCCUGGGCUUCUCUUUUCUGAUCGUCAGGUAGGAAAAGCCUAAAGAUUAGGUUGUAAGAAAAACAGAAGCCAUGUUUCGAAGACCUGUGUUACAGGUAUUUCGUCAGUUUGUAAGACAUGAGCAACAGAGGAUUGAGCAUCA`, the bound/input enrichment was 0.437 ratio.
`GGGAGUUCUACAGUCCGACGAUCCUGAAAAACACAGAUAUCAAAGUUGUUGACUUUGGAAGUGCAACAUAUGAUGAUGAACAUCACAGUACUUUGGUGUCUACCCGGCACUACAGAGCUCCAGAGGUCAUUUUGGCUUUAGGUCAACAGAGGAUUGAGCAUCA` gave a bound/input enrichment of 0.316 ratio.

Further values, each from its own experiment
`PhoQ, residues 284 288 289 292 302 303 TSTLRA` gave a fold induction of 5.88 (PhoP, residues 12 14 15 18 19 SQCLL (Escherichia coli, UniProt P23836); Sort-seq, refers to: YFP reporter; E. coli; PhoQ-PhoP variant library, with: 10 µM Mg2+; baseline: high Mg2+ state, higher = stronger signaling).

A few entries again (series 2):
`GGGAGUUCUACAGUCCGACGAUCUGGCCCUGGUGGCAUGCGGGGAGGAAGAGGUGGCCUCCUGGAUCGUGGUGGUCCCGGUGGAAUGUUCAGAGGUGGCCGUGGUGGAGACAGUGGAAUUCUCGGGUGUCAAGG` has a log2 enrichment of 0.00923.
`GGGAGUUCUACAGUCCGACGAUCAGUCCUGUGCUACACAUCGUAUGUACCGAAUCGGUUUUUGGGGUUUUUGGUUUUUGGAAAGUAUUAUGUUACGCCGUUCGGAUCUGCACUUGGAAUUCUCGGGUGUCAAGG` gave a log2 enrichment of -0.37.
